Assay results gathered from unrelated publications.
Parts stem from different laboratories: compare values within a part only.

Study 1
Target: Sal-like protein 4, full length isoform A (SALL4, Homo sapiens, UniProt Q9UJQ4, residues 1-1053)
Sequence of UniProt Q9UJQ4 (whole entry, looked up): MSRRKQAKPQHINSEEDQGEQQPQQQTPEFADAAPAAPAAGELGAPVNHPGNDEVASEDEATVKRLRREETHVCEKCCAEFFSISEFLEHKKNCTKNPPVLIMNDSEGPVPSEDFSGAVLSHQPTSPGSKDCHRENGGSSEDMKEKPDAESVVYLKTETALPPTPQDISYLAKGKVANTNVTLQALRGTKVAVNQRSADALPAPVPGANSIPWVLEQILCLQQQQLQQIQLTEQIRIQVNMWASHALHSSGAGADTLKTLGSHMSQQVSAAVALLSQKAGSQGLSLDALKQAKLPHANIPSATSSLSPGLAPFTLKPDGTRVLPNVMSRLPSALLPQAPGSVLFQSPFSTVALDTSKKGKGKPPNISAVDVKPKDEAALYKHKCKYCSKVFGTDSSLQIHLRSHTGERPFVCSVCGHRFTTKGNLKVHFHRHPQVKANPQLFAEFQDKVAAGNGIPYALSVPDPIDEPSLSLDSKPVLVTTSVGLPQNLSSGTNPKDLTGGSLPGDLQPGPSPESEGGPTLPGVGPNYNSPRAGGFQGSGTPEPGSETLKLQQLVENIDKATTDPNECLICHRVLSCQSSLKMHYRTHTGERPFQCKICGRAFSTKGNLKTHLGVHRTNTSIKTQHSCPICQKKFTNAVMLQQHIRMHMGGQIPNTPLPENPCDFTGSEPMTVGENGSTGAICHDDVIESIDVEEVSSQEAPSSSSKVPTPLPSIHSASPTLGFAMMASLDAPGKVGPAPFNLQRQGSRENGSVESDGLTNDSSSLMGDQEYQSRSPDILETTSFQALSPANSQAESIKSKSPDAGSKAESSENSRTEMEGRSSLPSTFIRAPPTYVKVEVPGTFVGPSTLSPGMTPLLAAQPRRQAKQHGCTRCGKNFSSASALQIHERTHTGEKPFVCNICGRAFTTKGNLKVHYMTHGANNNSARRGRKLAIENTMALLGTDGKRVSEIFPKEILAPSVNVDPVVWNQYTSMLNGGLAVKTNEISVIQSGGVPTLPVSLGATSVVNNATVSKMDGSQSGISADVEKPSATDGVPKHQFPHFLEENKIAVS
Technique: universal PBM
Molecule type: double-stranded DNA, one strand shown
Sample: in vitro
Tested at: 600 nM
Notes: 8-mer, flanks averaged, mean of replicates
Direction: higher = stronger binding
Endpoint: E-score
AGACCTCC: -0.204
ATCTCTCC: -0.0152
GCCACCAC: -0.152
TAGAGTAA: 0.172
CTTAATGC: 0.107

Study 2
Target: Max dimerization protein 1, bHLH-zipper, MAX partner unstated (MXD1, Homo sapiens, UniProt Q05195, residues 56-136)
Technique: protein-binding microarray
Molecule type: double-stranded DNA, one strand shown
Sample: in vitro
Tested at: not given
Notes: k-mer, scored over probes, only values ≥0.25
Direction: higher = stronger binding
Endpoint: E-score
Residues (chain): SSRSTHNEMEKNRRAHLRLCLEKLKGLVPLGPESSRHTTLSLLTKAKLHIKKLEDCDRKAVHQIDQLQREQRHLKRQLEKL
TCACACGA: 0.267
CACACACG: 0.32
AAAGCATG: 0.394
AACGTGAG: 0.266
CGTGGCTA: 0.295

Study 3
Target: Histone acetyltransferase KAT6A, winged helix 1, GST fusion (KAT6A, Homo sapiens, UniProt Q92794, residues 1-85)
Technique: protein binding microarray
Molecule type: double-stranded DNA, one strand shown
Sample: in vitro
Tested at: not given
Notes: 8-mer, flanks averaged, mean of 2 arrays, mostly near background
Baseline: not given
Direction: higher = stronger binding
Endpoint: E-score
Residues (chain): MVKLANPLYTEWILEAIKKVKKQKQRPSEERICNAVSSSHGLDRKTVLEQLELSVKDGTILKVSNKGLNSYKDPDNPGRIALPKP
AAATGATT: -0.192
CGGCTGAA: 0.19
ATTTGGTC: -0.265
ATTGAGAA: -0.0867
CGACCGAA: 0.0587

Other studies, line by line
PhoQ, residues 284 288 289 292 302 303 DDMDFR — fold induction (PhoP, residues 12 14 15 18 19 LHSVW (Escherichia coli, UniProt P23836); Sort-seq, refers to: YFP reporter; E. coli; PhoQ-PhoP variant library, added: 10 µM Mg2+; baseline: high Mg2+ state, higher = stronger signaling): 0.759
